Experimental data gathered from unrelated publications.
Parts stem from different laboratories: compare values within a part only. Changes are numbered by the printed parent chain.

Series 1
Target: Histone acetyltransferase KAT6A, winged helix 1, GST fusion (KAT6A, Homo sapiens, UniProt Q92794, residues 1-85)
Technique: protein binding microarray
Form: double-stranded DNA, one strand shown
Matrix: in vitro
Concentration: not given
Setting: 8-mer, flanks averaged, mean of 2 arrays, mostly near background
Reference: not given
Reading: higher = stronger binding
Construct (chain): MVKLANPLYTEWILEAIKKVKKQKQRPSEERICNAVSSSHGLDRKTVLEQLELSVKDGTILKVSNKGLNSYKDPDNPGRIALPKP
The E-score of `ACCGACGA` is reported as 0.0406.
`ACAGACCG` has an E-score of 0.136.
For `ATTCGAGC`, the E-score was -0.143.
For `CCATGTGC`, the E-score was 0.0502.
`TTAAATAA` gave an E-score of -0.0378.
For `CAATTTGC`, the E-score was -0.156.
For `CCTTTACC`, the E-score was 0.0938.
`AAGTTTTG` has an E-score of -0.137.
For `AATGCTGG`, the E-score was -0.186.
`CTTCGCCA` has an E-score of 0.0203.

Series 2
Target: RNA binding protein fox-1 homolog 2, RRM domain, GST-SBP tag (RBFOX2, Homo sapiens, UniProt O43251-10, residues 100-194)
Technique: RNA Bind-n-Seq
Form: RNA
Matrix: in vitro
Concentration: 365 nM
Setting: natural RNA segment, single round, ends assumed
Reference: no-protein control
Reading: higher = stronger binding
Shared flanks, not repeated: GGGAGUUCUACAGUCCGACGAUC … UGGAAUUCUCGGGUGCCAA
Residues (chain): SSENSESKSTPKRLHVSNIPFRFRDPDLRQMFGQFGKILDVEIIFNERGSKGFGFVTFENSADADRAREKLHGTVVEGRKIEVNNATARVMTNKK
For `AGUUAGAGCACUGUUUAGCUCCUUUGUCUGUGUGAUAGACCUAAGAACUGUAUUAGUGUUGUACCAGCCUAUUAACCUCUUGUCUGUGCACAGCUUCAAAUGUUACCGUC`, “RBNS enrichment (R)” read 0.311.
For `UUCCUUAAUAAACAGAUUCAUUUAGUUAUUUCAUAUAGGCAUCAAUAUGCAUUUAGCUUUAGUUUACUGAACAGUAAACAUGCUUUUAUUUCUUGCUAUGAGAGUAUUUU`, “RBNS enrichment (R)” read 2.2.
`GAGCUUCUUUGAGGCCAAGAAGCUGGUGUAGUGCCCUCUUUGUAUGACCCUUCCUUUUUACCUCAUUUAUUUGGUACUUUCCCCACACAGUCCUUUAUCCACCUGGAUUU` — result for “RBNS enrichment (R)”: 1.13.
For `CCUUGCUUGUCGGACCAAGGCAGCGAUGGUUGUGAUGAUGAUGGCUUGGUGAUAUCUGGGUAUGGCUCAGGGGAAACCUUUGACUCUAACCUGCCCCCUACUGAUGAUGA`, “RBNS enrichment (R)” read 0.576.
Under “RBNS enrichment (R)”, `UGUGCAGGGUUAAACUCCUGAAGUAACUUGUGAGGACUUCAGUGCUUGCUGGUGUCCUGGGCAGCACCAUGAAUGCCUUUACCAAGACAUGCCAAGUUGGAUCCCCCGAA` is recorded as 1.21.
`CUCAUAAACCAUCUCUGCAUCACCAUGAACCCAGACUAGCUGUGGUGCCAGAAACCUGAACUUAAACAACAGUUCUCAGUGCAAACUGUCCUAGGAAAAUUUAAAGAUGA` — result for “RBNS enrichment (R)”: 0.521.
For `UGUGACAUAUUUAUUCCUAGUUCCAUACCUUUGCACAUGCCCUACUCUCCACUAAUUAUACUUAAAAGUCCAAAAAUUUUUUCUUUAGUAACAGACUUAGGUACUGCUAA`, “RBNS enrichment (R)” read 0.741.
`UGGAGGAAGGAAGGCUAAGAACUGUCCUUGAGGAACUUCAUCAGUAACUCUGGUAAAGCAUCCUGUGGAGGGAGAGGAGAGCCCAGUCAUUUGCUUAGAUGGUGUUUGUG`: “RBNS enrichment (R)” 0.722.
`UUUUAUGUUUUGUACAUUAAUUGAUUAAUAAAAUAAUAAUUUUAUGUGAGAAUGUUUUCAAAAAGCCAAAUAAAGUCACAGAUAUUUUAGCUUCUUUCCCAGAAUAAACU`: “RBNS enrichment (R)” 0.603.
For `UGAGAGGUGGCAGAGCUGCGCUCCUGCCCACAGUGCUAGCCCAGGAAUCCUGGGGAGGCUGAGUAGACAUGAGUAAGAACAGGGCGCCGCCCCGCCCCUUCCUCCCCCAC`, “RBNS enrichment (R)” read 0.538.
For `GUUUUUUUCUUUGUACCUGAUGUGAAUUCUAGCAACCUUUGUUAGGAAAAAGCACAGCCUCGAAUGGAGGCAGCCUAAACUCUUGUCUGUCCUCUUCAUGGUGUCUCUUC`, “RBNS enrichment (R)” read 0.557.

Series 3
Target: CCNF, cyclin fold, Cln2 fusion (human)
Technique: yeast growth competition, sequencing
Matrix: yeast
Setting: strong parent motif
Reference: not given
Reading: higher = stronger binding
Starting sequence: SLBP docking peptide (human); ARYKRKLLINDFG
Under “normalised enrichment score”, `K4V` is recorded as 1.86.
`L7H` — result for “normalised enrichment score”: 0.094.
`D11T` — result for “normalised enrichment score”: 2.35.
`K4I`: “normalised enrichment score” 1.55.
For `L8F`, “normalised enrichment score” read 2.46.
Under “normalised enrichment score”, `K6F` is recorded as 1.6.
For `K4M`, “normalised enrichment score” read 2.27.

Other studies, line by line
The fold induction of `PhoQ, residues 284 288 289 292 302 303 AQGLTV` is reported as 12.4 (PhoP, residues 12 14 15 18 19 SFCSL (Escherichia coli, UniProt P23836); Sort-seq, refers to: YFP reporter; E. coli; PhoQ-PhoP variant library, with: 10 µM Mg2+; reference: high Mg2+ state, higher = stronger signaling).
